# Assay results collected from several papers.
# Lines come from different studies, so protocols differ. ± gives the spread as reported.
Molecule,target,test,system,conditions,how to read,endpoint,result
Nc1nc2c(ncn2[C@@H]2O[C@@H]3COP(=O)(O)O[C@H]3[C@H]2O)c(=O)[nH]1,rod cGMP-gated channel,"ion current, agonist, inside-out patch clamp",,"-40 mV, with: calmodulin 200 nM",,EC50,39400 nM
SRREWYV,human syntenin PDZ1-2 tandem,"binding, proteomic peptide phage display",peptide,phage pools rounds 4 and 5,higher = stronger enrichment,NGS read count,300
CCCCOc1cc(CC2CNC(=O)N2)ccc1OC (stereo not drawn),PDE4,inhibitor,HEK293 cells,,,Ki,150 ± 20 nM
CC1(C)CC(=O)C2=C(C1)Oc1ncnc(Nc3ccc([N+](=O)[O-])cc3)c1C2c1ccccc1F (stereo not drawn),calf thymus DNA,UV-visible absorption titration,,"20 µM, about 2% DMSO",,binding constant,1e+06 M⁻¹
O=C1c2c(O)cc(O)cc2O[C@H](c2cc(O)c(O)c(O)c2)[C@H]1O,"GABAA receptor, rat","tonic current enhancement, positive allosteric modulator, whole-cell patch clamp","hippocampal neurons, cultured","DIV14, no ethanol",,EC50,~200 nM
O=c1c(O)c(-c2ccc(O)c(O)c2)oc2cc(O)cc(O)c12,class IIb HDAC,enzyme activity,bovine heart lysate,,,IC50,37000 nM
NCCCCCCCCNS(=O)(=O)c1cccc2c(I)cccc12,anoctamin-2 rat,Ca2+-activated Cl- current,HEK293 transfected,"50 µM, -70 mV, with: free Ca2+ 7.5 µM",,current inactivation,decreased
RWFYFN / DRGSGK / WEKRWD (cyclic),α-synuclein,"inhibitor, ThT fluorescence",peptide,"2 molar equivalents, pH 6.6, 37 °C, with: HFIP 2 vol-%",baseline: uninhibited control,amyloid formation,89 ± 13%
LEQKAASAHNSYIVLCIENSFMTSFSK,"VEGFR-3-Fc, recombinant, mouse","pull-down, western blot",peptide,"concentration not given, 2 h, pH 7.4, 4 °C",,binding,inhibited
C[N+](C)(C)CCOC(N)=O,"Yes kinase, rat","Western blot, refers to: Yes pY416",pancreatic acini,"10 µM, 1 min",baseline: untreated control,phosphorylation level,207 ± 28%
QDAKLIS,human syntenin PDZ1-2 tandem,"binding, proteomic peptide phage display",peptide,phage pools rounds 4 and 5,higher = stronger enrichment,NGS read count,146
Cc1ccc(Cl)cc1NC(=O)c1cc(-c2ccc(F)c(O)c2)on1,"mitochondrial permeability transition pore, mouse",mitochondrial swelling inhibition,isolated mouse liver mitochondria,with: Ca2+,,EC50,0.134 ± 0.016 nM
CN1CCN(CCCN2c3ccccc3Sc3ccc(C(F)(F)F)cc32)CC1,anoctamin-2 rat,Ca2+-activated Cl- current,HEK293 transfected,"20 µM, 10 to 70 min, -70 mV",,current density,166 ± 24 pA/pF
CC[C@H](C)[C@H](NC(=O)[C@H](CC(=O)O)NC(=O)[C@H](CCCCN)NC(=O)[C@H](CCC(=O)O)NC(=O)[C@H](CCC(=O)O)NC(=O)[C@H](CCCCN)NC(C)=O)C(=O)N[C@@H](CC(N)=O)C(=O)N[C@@H](CC(N)=O)C(=O)N[C@@H](CC(N)=O)C(=O)N[C@H](C(=O)N[C@@H](CCCCN)C(=O)N[C@@H](CCCCN)C(=O)N[C@H](C(N)=O)[C@@H](C)O)C(C)C,"SPSB2-iNOS interaction, mouse","protein binding, inhibitor, immunoprecipitation Western blot",cell lysates,1 µM,,inhibition,inhibited
SQFPPGF,human syntenin PDZ1-2 tandem,"binding, proteomic peptide phage display",peptide,phage pools rounds 4 and 5,higher = stronger enrichment,NGS read count,125
CC(C)(O)c1cn(-c2ccc(-c3cc(F)c(CO)c(S(C)(=O)=O)c3)cc2)c(C(C)(C)c2cccc(F)c2Cl)n1,nuclear hormone receptors except PXR,agonist,cells,,,EC50,> 10000 nM
N-formylmethionyl-leucyl-phenylalanine,"alpha1-antichymotrypsin, human",protein synthesis,HepG2,"6 h, 37 °C, concentration-dependent increase",,concentration,20 nM
COc1cc(F)c(C(C)C)cc1-c1ccc(C(F)(F)F)cc1CN1C(=O)O[C@H](c2cc(C(F)(F)F)cc(C(F)(F)F)c2)[C@@H]1C,"CETP, human",,human plasma,"0.1 to 10 µM, 21 h",,pre-beta-HDL formation decrease,> 46%
GHRNGLE,human syntenin PDZ1-2 tandem,"binding, proteomic peptide phage display",peptide,phage pools rounds 4 and 5,higher = stronger enrichment,NGS read count,110
COc1cc(NC(=O)c2cc(-c3cccc(O)c3)on2)cc(OC)c1OC,"mitochondrial permeability transition pore, mouse",mitochondrial swelling inhibition,isolated mouse liver mitochondria,with: Ca2+,,EC50,< 390 nM
Nc1nc2sc(CCc3ccc(C(=O)N[C@@H](CCC(=O)O)C(=O)O)cc3)cc2c(=O)[nH]1,human folate receptor alpha,,RT16,"concentration not given, with: [3H]folic acid",baseline: folic acid,relative binding affinity,0.25 to 0.45
GKVKVGVNGFGRIGRLVTRAAFNSGKVDIVA,Candida albicans Sap3,"enzyme activity, inhibitor",peptide,"concentration not given, 30 min, pH 3.2, 37 °C, with: BSA substrate",,inhibition,no inhibition
Cc1ccc(C(=O)Nc2ccc(S(=O)(=O)O)c3cc(S(=O)(=O)O)cc(S(=O)(=O)O)c23)cc1NC(=O)c1cccc(NC(=O)Nc2cccc(C(=O)Nc3cc(C(=O)Nc4ccc(S(=O)(=O)O)c5cc(S(=O)(=O)O)cc(S(=O)(=O)O)c45)ccc3C)c2)c1,calf thymus histones,"binding, fluorescence titration",,"pH 7.4, 25 °C, unfractionated histone mixture",,Kd,250 nM
O=P(O)(O)OC[C@H]1OC(O)[C@H](O)[C@@H](O)[C@@H]1O (stereo partly drawn),Medicago sativa sucrose-phosphate synthase,"enzyme activity, allosteric activator",leaf extract,"pH 7.2, with: 10 mM fructose 6-phosphate, 12 mM UDP-glucose",,activation constant,2.1 ± 0.5 mM
COc1ccc2cc3[n+](cc2c1OC)CCc1cc2c(cc1-3)OCO2,class IIb HDAC,enzyme activity,bovine heart lysate,,,IC50,69000 nM
COc1cc(/C=C/C(=O)O)cc(OC)c1O,"BCRP (ABCG2), rat","protein expression, western blot","Wistar rats, intestine",40 mg/kg,baseline: untreated rats,inhibition,83.2%
Cc1c(Cl)cccc1NC(=O)c1cc(-c2ccc(F)c(O)c2)on1,"mitochondrial permeability transition pore, mouse",mitochondrial swelling inhibition,isolated mouse liver mitochondria,with: Ca2+,,EC50,0.89 ± 0.141 nM
Afamelanotide,spotted gar MC3R with MRAP2,"cAMP reporter gene, agonist",CHO,"4 h, 37 °C",,EC50,0.063 ± 0.013 nM
CC(C)c1cccc(C(C)C)c1O,GABA-A receptor rat,"GABA-evoked chloride current, positive allosteric modulator, whole-cell patch clamp",embryonic rat cortical neurons,"pH 7.4, holding -60 mV, with: GABA 5 µM",,EC50,6000 nM
COCc1ccc(C=O)[nH]1,quinone reductase,inducer,Hepa-1c1c7,48 h,,concentration doubling activity,> 100 µM
CCc1ccc(NC(=O)Nc2c[nH]c3ccccc23)cc1,human STING N154S,"immunoblot, refers to: pSTING, TBK1, IRF3",SAVI patient fibroblasts,"1 and 2 µM, with: cGAMP 3 h",,STING pathway phosphorylation,no effect
CC(=O)c1ccc(O)cn1,quinone reductase,inducer,Hepa-1c1c7,48 h,,concentration doubling activity,48.5 µM
CC(C)C[C@H](NC(=O)[C@H](CCc1ccccc1)NC(=O)CN1CCOCC1)C(=O)N[C@@H](Cc1ccccc1)C(=O)N[C@@H](CC(C)C)C(=O)[C@@]1(C)CO1,proteasome,enzyme activity,"human, whole blood and PBMC","dose not given, 1 h after dose, cycle days 1, 8, 1, cycle 2",,inhibition,≥ 90%
O=CCCCC=O,lysine-containing peptide,mass spectrometry,,"24 h, pH 10.2, room temperature",,maximal peptide depletion,-55.1%
C=CC(C)(CO)c1cc2c(=O)c(-c3ccc(O)cc3O)coc2cc1O (stereo not drawn),quinone reductase,inducer,Hepa1c1c7,,,concentration doubling activity,13 µM
KPQTMER,human syntenin PDZ1-2 tandem,"binding, proteomic peptide phage display",peptide,phage pools rounds 4 and 5,higher = stronger enrichment,NGS read count,132
O=C1OC(=O)c2ccccc21,lysine-containing peptide,mass spectrometry,,"24 h, pH 10.2, room temperature",,maximal peptide depletion,-20.6%
AALNGPV,human syntenin PDZ1-2 tandem,"binding, proteomic peptide phage display",peptide,phage pools rounds 4 and 5,higher = stronger enrichment,NGS read count,765
RGAVVTGR-NH2 (C-amide),α-synuclein,"amyloid formation, inhibitor, circular dichroism",peptide,"2 molar equivalents, pH 6.6, 37 °C, with: HFIP 2 vol-%",baseline: uninhibited control,β-structure formation,74 ± 23%

# Some of these lines once more:
Molecule,target,test,system,conditions,how to read,endpoint,result
Cc1c(Cl)cccc1NC(=O)c1cc(-c2ccc(F)c(O)c2)on1,"mitochondrial permeability transition pore, mouse",mitochondrial swelling inhibition,isolated mouse liver mitochondria,with: Ca2+,,EC50,0.89 ± 0.141 nM
Afamelanotide,spotted gar MC3R with MRAP2,"cAMP reporter gene, agonist",CHO,"4 h, 37 °C",,EC50,0.063 ± 0.013 nM
CC(C)c1cccc(C(C)C)c1O,GABA-A receptor rat,"GABA-evoked chloride current, positive allosteric modulator, whole-cell patch clamp",embryonic rat cortical neurons,"pH 7.4, holding -60 mV, with: GABA 5 µM",,EC50,6000 nM
COCc1ccc(C=O)[nH]1,quinone reductase,inducer,Hepa-1c1c7,48 h,,concentration doubling activity,> 100 µM
CCc1ccc(NC(=O)Nc2c[nH]c3ccccc23)cc1,human STING N154S,"immunoblot, refers to: pSTING, TBK1, IRF3",SAVI patient fibroblasts,"1 and 2 µM, with: cGAMP 3 h",,STING pathway phosphorylation,no effect
CC(=O)c1ccc(O)cn1,quinone reductase,inducer,Hepa-1c1c7,48 h,,concentration doubling activity,48.5 µM
